# Measurements from different studies.
# Compare with care: the assays were run in different laboratories. Values joined by “and” are separate records of one study, mostly repeats; a detail may differ. Numbers after ± are the reported error.
Substance,test,system,setting,how to read,quantity,value
O=S(=O)(O)Cc1ccccc1Nc1c(Cl)cccc1Cl,,human liver microsomes,"30 min, together with: NADPH",,remaining compound,53 ± 4.3%
CCOc1ccc(Cc2cc([C@]34OC[C@](CO)(O3)[C@@H](O)[C@H](O)[C@H]4O)ccc2Cl)cc1,equilibrium dialysis,"human, type 2 diabetes, severe renal impairment, plasma","oral, 15 mg, 6 h",,fu,0.0411
O=C(O)COC[C@H]1CC[C@H](COC(=O)N(c2ccccc2)c2ccc(Cl)cc2)CC1,,"human, plasma","oral, 30 µg, 12 h, multiple doses, twice daily, steady state",,concentration,1.11 ng/mL
CN(C)C(=N)N=C(N)N,,"Sprague-Dawley rat, male, blood","oral, 1500 mg/kg, 6 h",,ALT,increased
Cc1cc(Nc2ncc(Cl)c(Nc3ccccc3S(=O)(=O)C(C)C)n2)c(OC(C)C)cc1C1CCNCC1,measured: total drug,"human, plasma","oral, 750 mg/day",,"Css,max",1830 nM and 2230 nM
C[C@@H](O)[C@H]1C(=O)N2C(C(=O)O)=C(S[C@@H]3CN[C@H](C(=O)N(C)C)C3)[C@H](C)[C@H]12,,"pig (Danish Landrace), plasma, free concentration","iv infusion, 1000 mg over 10 min, MIC 0.25 µg/mL, together with: vancomycin co-administered",,time above MIC,372 min
CC(C)=CCC[C@](C)(O[C@@H]1O[C@H](CO[C@@H]2O[C@H](CO)[C@@H](O)[C@H](O)[C@H]2O)[C@@H](O)[C@H](O)[C@H]1O)[C@H]1CC[C@]2(C)[C@@H]1[C@H](O)C[C@@H]1[C@@]3(C)CC[C@H](O[C@@H]4O[C@H](CO)[C@@H](O)[C@H](O)[C@H]4O[C@@H]4O[C@H](CO)[C@@H](O)[C@H](O)[C@H]4O)C(C)(C)[C@@H]3CC[C@]12C,,"Sprague Dawley rat, male, plasma","oral, 86 mg/kg, in white ginseng extract",,CL/F,5 ± 1.33 mL/min/kg
CC(C)C[C@H](NC(=O)[C@H](CCc1ccccc1)NC(=O)CN1CCOCC1)C(=O)N[C@@H](Cc1ccccc1)C(=O)N[C@@H](CC(C)C)C(=O)[C@@]1(C)CO1,,"human patients, plasma","intravenous infusion 10 min, 27 mg/m^2, day 16 of cycle 1, KRd regimen",,steady-state volume of distribution,11.7 ± 5.4 L
O=C(Cc1cccc(OC(F)(F)F)c1)Nc1ccc(CCCCc2nnc(NC(=O)Cc3ccccn3)s2)nn1,,"human patients, plasma","oral, 100 mg three times daily fasted, cycle 1 day 15 steady state",,Cmin,147 ng/mL
Cc1c(CN2CCN(C(=O)[C@H](C)O)CC2)sc2c(N3CCOCC3)nc(-c3cnc(N)nc3)nc12,,"human patients, plasma",oral,,V1/F,211 L
acyl ghrelin (human),,"mouse, wild type, striatum","intravenous, 10 min",,brain/serum ratio,6.52 µL/g
CC(C)[C@H](N)C(=O)OCC1(CO)C/C1=C/n1cnc2c(=O)[nH]c(N)nc21.Cl (mixture of isomers),measured: prodrug,"Swiss-Webster mouse (male), plasma","intravenous, 24.6 mg/kg, two-compartment model",,distribution half-life,2.73 min
N[C@@H](CC(=O)O)Cn1nnc(-c2ccc(Oc3ncc(Cl)cc3F)cc2)n1,,"male beagle dog, blood","oral, 3 mg/kg daily, 4 days after last dose",,concentration,~30 ng/mL
CCOc1ccc(Cc2cc([C@@H]3S[C@H](CO)[C@@H](O)[C@H](O)[C@H]3O)c(OC)cc2C)cc1,,"human, plasma","oral, 5 mg, single dose, fasted, healthy volunteers",,AUC(0-inf),1830 ng·h/mL
C[C@]12CC[C@@H]3c4ccc(O)cc4CC[C@H]3[C@@H]1C[C@@H](O)[C@@H]2O,GC-MS,"breast cancer women on NSAI, serum","vaginal, 0.03 mg, 0.5 h, day 0",,minimum serum concentration,0 ng/mL
Cc1ccnc2c1NC(=O)c1cccnc1N2C1CC1,,"olive baboon (Papio anubis), non-pregnant, serum","oral, 10 mg/kg, solution, single dose",,AUC(0-8 h),2710 ± 1550 ng·h/mL
O=C1N=C(N2CCOCC2)CN1c1ccc(Cl)cc1,,"beagle dog, female","oral, 30 mg/kg, tablets",,terminal half-life,1.72 h
CNCc1ccc(-c2cc(-c3nc(-c4ccc(S(=O)(=O)C(C)C)cc4)cnc3N)on2)cc1,,"mouse BALB/c female, plasma","intravenous, 60 mg/kg, from AUC(0-inf)",,CL,28.3 mL/min/kg
C[C@@H]1CCC[C@H](n2cnc(-c3cc(Cl)ccc3-n3cc(Cl)nn3)cc2=O)c2cc(ccn2)-c2c(cnn2C(F)F)NC1=O,,"human, plasma","oral, 200 mg, single dose, fasted, healthy volunteers",,AUC(0-inf),13800 ng·h/mL
[2H]C([2H])([2H])Oc1cc2c(cc1OC([2H])([2H])[2H])C1CC(=O)C(CC(C)C)CN1CC2 (stereo not drawn),measured: total (α+β)-HTBZ,"human, fasted","oral, 15 mg single dose",baseline: tetrabenazine 25 mg fasted,geometric mean ratio Cmax,34.4%
CCOc1c([C@H](C)n2nc(C)c3c(N)ncnc32)cc(Cl)c(F)c1[C@@H]1CNC(=O)C1,,"healthy fasted humans, plasma","oral, 10 mg",,terminal half-life geometric mean,12.8 h
colistin methanesulfonate,,0.9% NaCl,"48 h, below CMC",,conversion to colistin,60%
COc1cc2ncnc(Nc3ccc(F)c(Cl)c3)c2cc1OCCCN1CCOCC1,,"ICR mice, male, plasma","intravenous, 5 mg/kg, cassette dosing",,clearance,38.3 mL/min/kg
CCCC[C@H](NC(C)=O)C(=O)N[C@H]1CCC(=O)NC[C@@H](C(=O)N[C@@H](Cc2c[nH]c3ccccc23)C(N)=O)NC(=O)[C@H](CCCNC(=N)N)NC(=O)[C@@H](Cc2ccccc2)NC(=O)[C@H](Cc2c[nH]cn2)NC1=O,,"CD Sprague Dawley rat, female, plasma","subcutaneous, 5.0 mg/kg daily, day 1",,CL/F,19.8 mL/min/kg
O=C(CCCN1CCCN(c2ccc(Cl)cc2)CC1)c1ccc(F)cc1,,"male Sprague-Dawley rats, plasma","intravenous, 1.7 mg/kg, together with: HAL 0.7 mg/kg plus BCT 0.1 mg/kg",,clearance,49.5 ± 11.2 mL/min/kg
Cc1ccc(Nc2nccc(N(C)c3ccc4c(C)n(C)nc4c3)n2)cc1S(N)(=O)=O,equilibrium dialysis,"patients, albumin below sample A g/L, plasma","6 h, 37 °C, median",,fraction unbound,0.000227 ± 0.000122
CCCC[C@@H]1NC(=O)[C@@H](NC(=O)[C@H](CCC(=O)O)NC(=O)CNC(=O)CN2CCN(CC(=O)O)CCN(CC(=O)O)CCN(CC(=O)O)CC2)CCCCNC(=O)C[C@@H](C(N)=O)NC(=O)[C@H](C(C)C)NC(=O)[C@@H]2CCCN2C(=O)[C@H](CCCNC(=N)N)NC(=O)CNC(=O)[C@H](Cc2c[nH]c3ccccc23)NC(=O)[C@H](CCCNC(=N)N)NC(=O)[C@@H](Cc2ccccc2)NC(=O)[C@H](Cc2c[nH]cn2)NC(=O)[C@H](CCC(=O)O)NC1=O [indium-111 labelled],,"C57 mice, B16/F10 lung metastatic melanoma, liver","intravenous, 0.037 MBq, 2 h",,tissue uptake,0.42 ± 0.07 %ID/g
CC[C@H](C)[C@H](NC(=O)[C@H](CCSC)NC(=O)[C@H](CCCNC(=N)N)NC(=O)[C@H](Cc1ccc(O)cc1)NC(=O)[C@H](C)NC(=O)[C@H](CCC(N)=O)NC(=O)CNC(=O)[C@H](CCCCN)NC(=O)[C@@H](N)CO)C(=O)O,,"male ddY mouse, whole brain","intranasal, 1 mg, 30 min",baseline: intraperitoneal,brain concentration increase,1470%
Cn1c(-c2ccc(C(N)=O)cc2F)nnc1C(C)(C)Oc1c(F)cc(Cl)cc1F,,"young Japanese adults, plasma","oral, 20 mg single dose, day 1, high-dose multiple-dose study",,half-life mean,18.1 h
Oc1ccc(-c2nc(-c3ccc(Oc4ccccc4)cc3)no2)cc1,,"ICR mice, plasma","intravenous, 50 mg/kg",,initial half-life,2.4 min
CC[C@H](C)[C@H](NC(=O)[C@H](CCCCN)NC(=O)[C@@H]1CCCN1C(C)=O)C(=O)N[C@@H](CCC(=O)O)C(=O)N[C@H](C(=O)N[C@@H](CCCCN)C(=O)N[C@H](C(=O)N[C@@H](CCC(=O)O)C(=O)N1CCC[C@H]1C(N)=O)[C@@H](C)CC)[C@@H](C)CC,rotational rheometry,1% w/v aqueous solution,shear rate range 1-1000 s^-1,,viscosity,3570 ± 157 Pa·s
CCc1ccc(C(=O)CSc2nc(C)cc(C)c2C#N)cc1,metabolic stability,"human, liver microsomes","0.5 µM, pH 7.4",,microsomal CLint,1070 µL/min/mg
O=c1cc(-c2ccc(O)c(-c3c(O)cc(O)c4c(=O)cc(-c5ccc(O)cc5)oc34)c2)oc2cc(O)cc(O)c12,UV-vis pH titration,"ethanol-water, 0.1 M NaCl","25 µM, 25 °C, first pKa, keto protonation",,pKa,1.42

# Some of these lines once more:
Substance,test,system,setting,how to read,quantity,value
CC(C)[C@H](N)C(=O)OCC1(CO)C/C1=C/n1cnc2c(=O)[nH]c(N)nc21.Cl (mixture of isomers),measured: prodrug,"Swiss-Webster mouse (male), plasma","intravenous, 24.6 mg/kg, two-compartment model",,distribution half-life,2.73 min
Cn1c(-c2ccc(C(N)=O)cc2F)nnc1C(C)(C)Oc1c(F)cc(Cl)cc1F,,"young Japanese adults, plasma","oral, 20 mg single dose, day 1, high-dose multiple-dose study",,half-life mean,18.1 h
Cc1cc(Nc2ncc(Cl)c(Nc3ccccc3S(=O)(=O)C(C)C)n2)c(OC(C)C)cc1C1CCNCC1,measured: total drug,"human, plasma","oral, 750 mg/day",,"Css,max",1830 nM and 2230 nM
CCOc1c([C@H](C)n2nc(C)c3c(N)ncnc32)cc(Cl)c(F)c1[C@@H]1CNC(=O)C1,,"healthy fasted humans, plasma","oral, 10 mg",,terminal half-life geometric mean,12.8 h
